Measurements of several laboratories.
Each line is one published result; not all experiments were run side by side.
KIT V559D/V654A: Mast/stem cell growth factor receptor Kit (KIT, Homo sapiens, UniProt P10721, V559D/V654A)
KIT autoinhibited: Mast/stem cell growth factor receptor Kit, autoinhibited (KIT, Homo sapiens, UniProt P10721)
KIT: Mast/stem cell growth factor receptor Kit (KIT, Homo sapiens, UniProt P10721)
KIT D816V: Mast/stem cell growth factor receptor Kit (KIT, Homo sapiens, UniProt P10721, D816V)
KIT L576P: Mast/stem cell growth factor receptor Kit (KIT, Homo sapiens, UniProt P10721, L576P)

CCN1CCN(Cc2ccc(C(=O)Nc3ccc(C)c(NCc4cnc5[nH]ccc5c4OC)c3)cc2C(F)(F)F)CC1 — remaining binding (KIT V559D/V654A; binding, competition with immobilised ligand; 1 µM): 24%
Nc1ncc2c(n1)-c1c([nH]c3ccc(C4=CCOCC4)cc13)CCC2 — remaining binding (KIT autoinhibited; binding, competition with immobilised ligand; 1 µM): 100%
CNC(=O)C1CCN(c2cc(C)c(F)cc2NC(=O)c2ccc(-c3cc(O)ccc3C)c(C)c2)CC1 — remaining binding (KIT (Homo sapiens, UniProt P10721, A829P); binding, competition with immobilised ligand; 1 µM): 74%
CNC1C[S+]2CC[S+]3CC[S+](C1)[Ru-4]321([N]=C=S)[n]2c3ccc(OC)cc3c3c4c(c5cc(F)c[n+]1c5c32)C(=O)NC4=O (stereo not drawn) — remaining binding (KIT; KinomeScan; 0.1 µM; reference: untreated): 62%
COc1c(Cl)cccc1Nc1c(-c2ccncc2C#C[C@@]2(C)CCCN2C(=O)/C=C/CN(C)C)[nH]c2c1C(=O)NCC2 — remaining binding (KIT autoinhibited; binding, competition with immobilised ligand; 3 µM): 93%
Cc1ccc(-c2c(/C=C(\C#N)C(=O)NC(C)C)n(CCCO)c3ncnc(N)c23)cc1 — remaining binding (KIT D816V; cell-free assay, competition with immobilised ligand; 1 µM): 98%
C=CC(=O)N1CCCC(n2c(=O)c3ncccc3n(Cc3ccc(Oc4ccccc4)cc3)c2=O)C1 (stereo not drawn) — remaining binding (KIT L576P; cell-free assay, competition with immobilised ligand; 1 µM): 100%
Cc1cnc2nc1Nc1cccc(c1)COC/C=C/COCc1cc(ccc1OCCN1CCOCC1)N2 — remaining binding (KIT L576P; binding; 0.1 µM): 11%
CC(C)=CC1OC(C)(C)C2C=C3C(=O)C(Cl)=CC(O)C3C3C(O)C4OC4C(=O)C132 (stereo not drawn) — remaining binding (KIT V559D/V654A; cell-free assay, competition with immobilised ligand; 10 µM): 69%
CCN1CCN(Cc2ccc(NC(=O)c3ccc(C)c(NC(=O)c4cncc(-c5cccs5)c4)c3)cc2C(F)(F)F)CC1 — remaining binding (KIT (Homo sapiens, UniProt P10721, V559D); binding, competition with immobilised ligand; 1 µM): 0%
C=CC(=O)N1CCc2ccc(-n3c(=O)ccc4cnc5ccc(-c6cnn(C)c6)cc5c43)cc21 — remaining binding (KIT; KINOMEscan; 1 µM; reference: DMSO control): 62%
CN1CCN(Cc2ccc(NC(=O)c3cccc(C#Cc4cnc(N)c5ncccc45)c3)cc2C(F)(F)F)CC1 — remaining binding (KIT D816V; cell-free assay, competition with immobilised ligand; 0.5 µM): 1.6%
